{"data": "Published values collected from several papers", "note": "Compare with care: the assays were run in different laboratories. ± marks the error that the study gave."}
{"Compound": "CC(C)(O)c1ncc([S@](N)(=O)=NC(=O)Nc2c3c(cc4c2CCC4)CCC3)s1", "assay": "measured: blood, lymphatic system disorders", "system": "healthy human", "setting": "oral, 3 mg, CS formulation", "endpoint": "subjects with TEAEs", "value": "33%"}
{"Compound": "OC1(C(F)(F)F)CCN(c2nc(Nc3ccnc(C(F)(F)F)c3)nc(-c3cccc(C(F)(F)F)n3)n2)C1 (stereo not drawn)", "system": "monkey, plasma", "setting": "oral, 10 mg/kg", "endpoint": "half-life", "value": "15.2 ± 6.6 h"}
{"Compound": "C=C(NC(=O)c1csc(-c2nc3c(cc2O)-c2nc(cs2)C(=O)NC(C(C)O)C(=O)NC(=C(C)OC)c2nc(cs2)C(=O)NC2c4nc(cs4)C(=O)NC(COC(=O)c4c5c6c(cccc6n4O)COC(=O)C(OC4CC(C)(O)C(N(C)C)C(C)O4)C2OC5)c2nc-3cs2)n1)C(N)=O (stereo not drawn)", "system": "cynomolgus monkey, both sexes, plasma", "setting": "intravenous infusion, 3 mg/kg single dose", "endpoint": "AUC(0-last)", "value": "24400 ± 8980 ng·h/mL"}
{"Compound": "Nc1ncc(-c2cc(-c3cnn(CC(F)(F)F)c3)ncc2F)nc1C(=O)NC1CNCC(F)C1 (stereo not drawn)", "target or system": "DMPK", "assay": "KINOMEscan", "setting": "1 µM", "how to read": "reference: DMSO control", "endpoint": "remaining binding", "value": "29%"}
{"Compound": "CCCCN1C(=O)c2cccc3c(NCCCCN4CCOCC4)ccc(c23)C1=O", "system": "ethylene glycol", "endpoint": "fluorescence lifetime", "value": "8 ns"}
{"Compound": "COc1cccc(OC)c1-c1cc(C(=O)NC2(C(=O)O)C3CC4CC(C3)CC2C4)nn1-c1ccc(C(=O)N(C)CCOCCN(C)C(=O)[C@H](CCCCNC(=O)[C@H](CC(C)C)NC(=O)C2OC2C(=O)O)NC(=O)CN2CCN(CC(=O)[O-])CCN(CC(=O)[O-])CCN(CC(=O)[O-])CC2)cc1C(C)C.[177Lu+3] (mixture of isomers)", "system": "mouse HT-29 xenograft", "setting": "72 h, biodistribution", "how to read": "reference: tumour over large intestine", "endpoint": "tumour-to-large intestine ratio", "value": 21.4}
{"Compound": "O=C([O-])CN1CCN(CC(=O)[O-])CCN(CC(CCCc2ccccc2[N+](=O)[O-])N(CC(=O)[O-])CC(=O)[O-])CC1.[90Y+3] (stereo not drawn)", "assay": "HPLC", "system": "human serum", "setting": "48 h, pH 7, 37 °C", "endpoint": "intact radiolabelled complex", "value": "100%"}
{"Compound": "C=C1CC[C@H](OCCCNC(=O)CCOCCOCCOCCOCCOCCOCCOCCOCCOCCOCCOCCOCCOCCOCCOCCOCCOCCOCCOCCOCCOCCOCCOCCOCCOCCOCCOCCOCCOCCOCCOCCOCCOCCOCCOCCOCCNC(=O)CCN2C(=O)CC(SC[C@H](NC(=O)[C@H](Cc3ccccc3)NC(=O)[C@H](CC(N)=O)NC(=O)[C@H](Cc3c[nH]cn3)NC(=O)[C@@H](NC(=O)[C@H](CC(=O)O)NC(=O)[C@H](CCC(N)=O)NC(=O)[C@H](CC(C)C)NC(=O)[C@H](CCCCN)NC(=O)[C@H](CCCCN)NC(=O)[C@H](CCCNC(=N)N)NC(=O)[C@H](CC(C)C)NC(=O)[C@H](Cc3c[nH]c4ccccc34)NC(=O)[C@H](CCC(=O)O)NC(=O)[C@@H](NC(=O)[C@H](CCCNC(=N)N)NC(=O)[C@H](CCC(=O)O)NC(=O)[C@H](CCSC)NC(=O)[C@H](CO)NC(=O)[C@H](CC(N)=O)NC(=O)[C@H](CC(C)C)NC(=O)[C@H](Cc3c[nH]cn3)NC(=O)[C@H](CCCCN)NC(=O)CNC(=O)[C@H](CC(C)C)NC(=O)[C@H](CC(N)=O)NC(=O)[C@H](Cc3c[nH]cn3)NC(=O)[C@H](CCSC)NC(=O)[C@H](CC(C)C)NC(=O)[C@H](CCC(N)=O)NC(=O)[C@@H](NC(=O)[C@H](CCC(=O)O)NC(=O)[C@H](CO)NC(=O)[C@@H](NC(=O)[C@@H](N)CO)C(C)C)[C@@H](C)CC)C(C)C)C(C)C)C(=O)O)C2=O)C/C1=C/C=C1\\CCC[C@]2(C)[C@@H]([C@H](C)CCCC(C)(C)O)CC[C@@H]12 (stereo partly drawn)", "system": "male Sprague-Dawley rat, plasma", "setting": "subcutaneous, 100 µg/kg, single dose", "endpoint": "AUC(0-t)", "value": "468 ng·h/mL"}
{"Compound": "CC(C)C[C@H](NC(=O)[C@H](CCCN)NC(=O)CNC(=O)[C@@H](NC(=O)[C@H](C)NC(=O)[C@@H]1CSCSC[C@H](NC(=O)CC[C@H](N)C(=O)O)C(=O)N[C@@H](CC(N)=O)C(=O)N[C@@H]([C@@H](C)O)C(=O)N[C@@H](C)C(=O)N[C@@H]([C@@H](C)O)C(=O)N1)[C@@H](C)O)C(=O)N[C@@H](C)C(=O)N[C@@H](CCC(=O)O)C(=O)N[C@@](C)(Cc1ccccc1)C(=O)N[C@@H](CC(C)C)C(=O)N[C@H](C(=O)N[C@@H](CCCNC(=N)N)C(=O)N[C@@H](CO)C(=O)N[C@@H](CO)C(=O)N[C@@H](CC(N)=O)C(=O)N(C)[C@@H](CC(N)=O)C(=O)N[C@@H](Cc1ccccc1)C(=O)NCC(=O)N1CCC[C@H]1C(=O)N[C@@H](CCCCNC(=O)CC[C@H](NC(=O)CC[C@H](NC(=O)CCCCCCCCCCCCCCCCCCC(=O)O)C(=O)O)C(=O)O)C(=O)N[C@@H](CC(C)C)C(=O)N1CCC[C@H]1C(=O)N1CCC[C@H]1C(=O)N[C@H](C(=O)N[C@@H](CCC(=O)O)C(=O)N[C@H](C(=O)NCC(=O)N[C@@H](CO)C(=O)N[C@@H](CC(N)=O)C(=O)N[C@H](C(=O)N[C@@H](Cc1ccc(O)cc1)C(N)=O)[C@@H](C)O)C(C)C)[C@@H](C)O)C(C)C", "system": "healthy human", "setting": "subcutaneous, 12 mg", "endpoint": "%AUC extrapolated", "value": "6.4%"}
{"Compound": "COC1CN([C@H]2CC[C@H]([C@@]3(C)Oc4c(Cl)cc(C(=O)NCc5c(SC)cc(C)[nH]c5=O)c(C)c4O3)CC2)C1", "assay": "RNA-seq, measured: ZNRF3", "system": "human, whole blood", "setting": "dose not given, 24 h", "how to read": "reference: pretreatment baseline", "endpoint": "log2 fold change", "value": 1.23}
{"Compound": "COc1cccc(OC)c1-c1cc(C(=O)NC2(C(=O)O)C3CC4CC(C3)CC2C4)nn1-c1ccc(C(=O)NCCNC(=O)[C@H](CCCCNC(=O)[C@H](CC(C)C)NC(=O)C2OC2C(=O)O)NC(=O)CN2CCN(CC(=O)[O-])CCN(CC(=O)[O-])CCN(CC(=O)[O-])CC2)cc1C(C)C.[177Lu+3] (mixture of isomers)", "system": "mouse, HT-29 xenograft", "setting": "72 h post injection, biodistribution", "how to read": "reference: tumour over lung uptake", "endpoint": "tumour-to-lung ratio", "value": 8.76}
{"Compound": "C=CC(=O)Nc1cccc(Cn2ncc3cnc(Nc4cnn(CCOC)c4)nc32)c1", "system": "human, both sexes, whole blood", "setting": "5 µM, 15 min", "endpoint": "remaining compound", "value": "94.5%"}
{"Compound": "Cc1ncsc1-c1ccc(C(C)NC(=O)C2CC(O)CN2C(=O)C(NC(=O)CCCCCCCCCCN2CCCC(Nc3ncc(Cl)c(Nc4ccccc4S(=O)(=O)C(C)C)n3)C2)C(C)(C)C)cc1 (stereo not drawn)", "target or system": "22Rv1", "assay": "RNA-seq, measured: PPP1R3F mRNA", "setting": "concentration not given", "how to read": "reference: DMSO", "endpoint": "log2 fold change", "value": -1.37}
{"Compound": "CC(C)OCCOCc1ccc(OCC(O)CN(N=O)C(C)C)cc1 (stereo not drawn)", "target or system": "Escherichia coli", "assay": "Ames test", "system": "WP2 uvrA", "setting": "50 µg/plate, without metabolic activation", "how to read": "reference: solvent control", "endpoint": "revertant fold increase", "value": "1.2 fold"}
{"Compound": "O=C(Nc1cnccc1-c1ccc([18F])nc1)c1ccnc(NC(=O)C2CC2)c1", "system": "FVB/NJ mouse, both sexes, brain", "setting": "intravenous, 5 min, together with: tariquidar 15 mg/kg iv", "endpoint": "SUV", "value": 0.341}
{"Compound": "C=CC(=O)Nc1cc(Nc2nccc(-c3c[nH]c4ccccc34)n2)c(OC)cc1N(C)CCN(C)C", "assay": "storage stability", "system": "human plasma", "setting": "24 h, -80 °C, medium QC level", "endpoint": "recovery", "value": "93.3%"}
{"Compound": "CNS(=O)(=O)Nc1nccc(Cc2c(C)c3ccc(Oc4ncccc4F)cc3oc2=O)c1F", "target or system": "HCC44", "assay": "cell viability", "setting": "7 days", "endpoint": "IC50", "value": "899 nM"}
{"Compound": "CN(C)c1ccc(-c2oc3cc4ccccc4cc3c(=O)c2O)cc1", "system": "DMSO", "setting": "together with: visible light 445-465 nm", "endpoint": "CO yield", "value": 0.99}
